{"data": "Experimental data collected from several papers", "note": "Each numbered part is a random draw from the data of one study; scales do not carry over between parts. Positions count from the first letter of the parent shown."}
{"data": "Sample 1", "target": "ABI1, truncated, D143A, DHFR fusion (Arabidopsis thaliana)", "technique": "DHFR PCA, deep sequencing", "medium": "yeast", "setting": "methotrexate growth selection, single substitutions", "with": "(+)-ABA 2500 µM", "reference": "wild-type fitted maximum", "reading": "higher = stronger binding", "starting sequence": "PYL1, truncated, DHFR fusion (Arabidopsis thaliana); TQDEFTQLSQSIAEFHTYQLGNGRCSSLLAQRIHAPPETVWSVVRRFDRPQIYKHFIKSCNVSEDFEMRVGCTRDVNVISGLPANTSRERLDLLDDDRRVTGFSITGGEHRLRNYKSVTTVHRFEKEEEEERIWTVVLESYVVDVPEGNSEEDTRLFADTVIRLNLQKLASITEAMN"}
{"Substitution": "T135F", "relative binding score": "-3.27%"}
{"Substitution": "P146D", "relative binding score": "66.8%"}
{"Substitution": "V142N", "relative binding score": "88.6%"}
{"Substitution": "M176Q", "relative binding score": "94%"}
{"Substitution": "E38T", "relative binding score": "89.6%"}
{"Substitution": "M68Y", "relative binding score": "95.6%"}
{"Substitution": "P50T", "relative binding score": "20.5%"}
{"Substitution": "G81T", "relative binding score": "79.5%"}
{"Substitution": "D92M", "relative binding score": "87.6%"}
{"Substitution": "R113Y", "relative binding score": "98.5%"}
{"data": "Sample 2", "target": "CCNB2, cyclin fold, Cln2 fusion (human)", "technique": "yeast growth competition, sequencing", "medium": "yeast", "setting": "weak parent motif", "reference": "not given", "reading": "higher = stronger binding", "starting sequence": "CDC6 docking peptide (human); TLKGRRLVFDNQL"}
{"Substitution": "TLKGRRLVFDNGL [Q12G]", "normalised enrichment score": 0.762}
{"Substitution": "TLKGRRLVFDCQL [N11C]", "normalised enrichment score": 0.142}
{"Substitution": "TLKGRRFVFDNQL [L7F]", "normalised enrichment score": 0.12}
{"Substitution": "TLKGRRLVFDNNL [Q12N]", "normalised enrichment score": -0.254}
{"Substitution": "TLKGRKLVFDNQL [R6K]", "normalised enrichment score": -0.117}
{"Substitution": "TLKGRRLVDDNQL [F9D]", "normalised enrichment score": -0.0042}
{"Substitution": "TLLGRRLVFDNQL [K3L]", "normalised enrichment score": 0.679}
{"Substitution": "TLKGRVLVFDNQL [R6V]", "normalised enrichment score": 0.44}
{"Substitution": "TLKGRRRVFDNQL [L7R]", "normalised enrichment score": 0.577}
{"Substitution": "TLKGRRLVVDNQL [F9V]", "normalised enrichment score": -0.267}
{"Substitution": "TLKGRRLVFDNQS [L13S]", "normalised enrichment score": 0.276}
{"Substitution": "TLKGRRLVFDHQL [N11H]", "normalised enrichment score": 0.274}
{"Substitution": "TLKGRRLVTDNQL [F9T]", "normalised enrichment score": -0.00641}
{"data": "Sample 3", "target": "Ras GTPase-activating protein-binding protein 1, RRM domain (G3BP1, Homo sapiens, UniProt Q13283)", "technique": "RNA Bind-n-Seq", "molecule type": "RNA", "medium": "in vitro", "concentration": "1 µM", "setting": "whole 134-nt RNA, ends assumed", "with": "150 mM KCl", "reference": "input library", "reading": "higher = stronger binding", "UniProt Q13283, sequence (whole entry, looked up)": "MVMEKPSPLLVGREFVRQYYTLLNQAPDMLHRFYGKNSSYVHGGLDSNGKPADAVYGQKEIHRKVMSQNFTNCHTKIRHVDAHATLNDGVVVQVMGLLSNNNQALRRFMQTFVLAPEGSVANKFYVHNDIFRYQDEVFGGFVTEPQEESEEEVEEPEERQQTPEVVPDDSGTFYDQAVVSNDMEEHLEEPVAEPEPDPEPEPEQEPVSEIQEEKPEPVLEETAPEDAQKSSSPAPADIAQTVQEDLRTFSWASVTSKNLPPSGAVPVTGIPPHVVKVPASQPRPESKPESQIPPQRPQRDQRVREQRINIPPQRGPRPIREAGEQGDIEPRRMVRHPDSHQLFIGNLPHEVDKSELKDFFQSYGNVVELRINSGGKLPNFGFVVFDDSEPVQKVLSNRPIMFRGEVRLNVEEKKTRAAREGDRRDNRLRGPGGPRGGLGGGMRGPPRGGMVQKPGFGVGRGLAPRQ"}
{"Sequence": "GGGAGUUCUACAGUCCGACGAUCGCAGGAAGUAAAAACAAAUGGAAAUGCUUCGGAUAGUGGCAGGGGUGGGGGUUGCUAAGGAAAGGGUUGGAUGGGAGUGGGUAAAGAGUUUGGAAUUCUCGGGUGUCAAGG", "log2 enrichment": 1.52}
{"Sequence": "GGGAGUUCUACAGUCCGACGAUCAGUCCUGUGCUACACAUCGUAUGUACCGAAUCGGUUUUUUUGGUUUGGUUUUUUUGGAAAGUAUUAUGUUACGCCGUUCGGAUCUGCACUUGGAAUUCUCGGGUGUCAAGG", "log2 enrichment": -0.417}
{"Sequence": "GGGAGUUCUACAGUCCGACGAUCAGUCCUGUGCUACACAUCGUAUGUACCGAAUCGGGGAAAGGGGAAAGGGGUUUGGGGAAAGUAUUAUGUUACGCCGUUCGGAUCUGCACUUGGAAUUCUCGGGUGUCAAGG", "log2 enrichment": 1.66}
{"Sequence": "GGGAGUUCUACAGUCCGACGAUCUCCUCAAGUCCUGUGCUACACAUCGUAUGUACCGAAUCGGUGGUGGAAAGGAAAGUAUUAUGUUACGCCGUUCGGAUCUGCACUUCCAGCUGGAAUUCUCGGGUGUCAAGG", "log2 enrichment": -0.0785}
{"Sequence": "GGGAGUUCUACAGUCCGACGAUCAAGUCCUGUGCUACACAUCGUAUGUACCGAAUCGGGUUUGGGUUUUUGGGAAAGGGAAAGUAUUAUGUUACGCCGUUCGGAUCUGCACUUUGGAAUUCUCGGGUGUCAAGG", "log2 enrichment": 0.665}
{"Sequence": "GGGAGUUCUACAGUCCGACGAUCUCCCCAGGGCCUGGCCUACUCAAUCUCUCCCACCUCAUCCUCUGGCAUGGACGCAGUCAGGGAGUCUGCUCCAAGCAGACACUGGUGGUCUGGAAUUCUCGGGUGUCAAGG", "log2 enrichment": -0.253}
{"Sequence": "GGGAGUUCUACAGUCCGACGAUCUGUGCUACACAUCGUAUGUACCGAAUCGGGCCCCCCCGGGGCCCCCCCGGGCCCCCCCGGGGAAAGUAUUAUGUUACGCCGUUCGGAUCUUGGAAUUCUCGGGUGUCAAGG", "log2 enrichment": -0.62}
{"Sequence": "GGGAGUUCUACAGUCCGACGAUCUCAAGUCCUGUGCUACACAUCGUAUGUACCGAAUCGGGCCGGGCCGGGGCCGGGGAAAGUAUUAUGUUACGCCGUUCGGAUCUGCACUUCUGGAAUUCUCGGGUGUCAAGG", "log2 enrichment": -0.764}
{"Sequence": "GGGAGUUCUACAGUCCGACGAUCACAAUGCAGGUGGGCAUCUUUGGGAAGUGGGGCAAGGGGGGGAUAGGGAGGGGGGUAACACUUUGGGAACAGGUGGUCCCAGGUCGUUUCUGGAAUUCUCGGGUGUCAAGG", "log2 enrichment": -0.53}
{"Sequence": "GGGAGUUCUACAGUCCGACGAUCUUACUACCUCCGCCUUCAUUUCCGUCAGCAAUCCCGGCGCGGGCUCCCCGGCCCCCGCCAGCCCGCCUCCCCUCGCUGUGCCCGGGACCGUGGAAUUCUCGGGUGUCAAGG", "log2 enrichment": -0.638}
{"Sequence": "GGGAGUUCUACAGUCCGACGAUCUCCUGUGCUACACAUCGUAUGUACCGAAUCGGGGAAAGGGGUUUGGGGUUUUUUUGGGGAAAGUAUUAUGUUACGCCGUUCGGAUCUGCAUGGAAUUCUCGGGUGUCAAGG", "log2 enrichment": 1.12}
{"Sequence": "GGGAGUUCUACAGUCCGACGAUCUUCGACGGCGCCGGGCGAGUGGCUGUUGAGCGGCGCCGCGGGAGUUCCGCAGGUUUCCCGUGUUCGCAGCGGAGCCGGAGGCCAGCUGAAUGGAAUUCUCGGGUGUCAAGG", "log2 enrichment": -1.03}
{"data": "Mixed results"}
{"Substance": "PhoQ, residues 284 288 289 292 302 303 HSYLQF", "target": "PhoP, residues 12 14 15 18 19 NIMAP (Escherichia coli, UniProt P23836)", "test": "Sort-seq, measured: YFP reporter", "test system": "E. coli", "setting": "PhoQ-PhoP variant library, with: 10 µM Mg2+", "scale": "reference: high Mg2+ state, higher = stronger signaling", "quantity": "fold induction", "result": 1.62}
{"note": "Repeated from above (mixed results):"}
{"Substance": "PhoQ, residues 284 288 289 292 302 303 HSYLQF", "target": "PhoP, residues 12 14 15 18 19 NIMAP (Escherichia coli, UniProt P23836)", "test": "Sort-seq, measured: YFP reporter", "test system": "E. coli", "setting": "PhoQ-PhoP variant library, with: 10 µM Mg2+", "scale": "reference: high Mg2+ state, higher = stronger signaling", "quantity": "fold induction", "result": 1.62}
